Experimental data collected from several papers.
Numbered parts are unrelated; each lists some results of a single study. Positions count from the first letter of the parent shown.

Sample 1 — technique: RNA Bind-n-Seq; form: RNA; medium: in vitro; tested at: 365 nM; baseline: no-protein control; reading: higher = stronger binding; quantity: RBNS enrichment (R)
Target: RNA binding protein fox-1 homolog 2, RRM domain, GST-SBP tag (RBFOX2, Homo sapiens, UniProt O43251-10, residues 100-194)
Notes: natural RNA segment, single round, ends assumed
Target sequence (chain): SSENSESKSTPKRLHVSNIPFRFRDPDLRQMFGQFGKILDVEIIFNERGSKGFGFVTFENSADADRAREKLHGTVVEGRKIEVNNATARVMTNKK
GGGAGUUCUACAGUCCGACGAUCCUAGUUCAGAGCCCCCGUUCCCCAGGGUCCUGUGGGCUGAGCGGCUGGGGCUGGGGCUGCCCACGUGUGGCCUCCGCUGGCUCUGCCUGCUCCUGCAACAGUGCGGUCCCUGGAAUUCUCGGGUGCCAA: 0.23
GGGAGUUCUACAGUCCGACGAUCUGUGCUUGUAUUUGCAAGUUGAAUUUUUUUAAUGUUGGUUCCAAAAACAGUGAAUUAGCUGAAAAGAAAUGGAGAAGUGUCUUGGAGAUUUACUGAAAUAGCUAAUUGUCUGGAAUUCUCGGGUGCCAA: 0.679
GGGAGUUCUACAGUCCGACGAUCCUAGGAGGUUGGCACUAAGACCCAGGACAAUGUUACUUCUCUGUGAUGUGUGGUGACUUCCCUCUGCUGGCUUAUGCAGUGAUGGUGAAUGAACCAGUCAGUGGAAAACUUGGAAUUCUCGGGUGCCAA: 0.699
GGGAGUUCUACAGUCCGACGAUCUGAGUCUUUGAGACUAAAUUCAAUCACCACCAGGUAUCAAAUCAACUUUUAUGCAGCAAAUAUAUGAUUCUAGUGUCUGACUUUUGUUAAAUUCAGUAAUGCAGUUUUUAUGGAAUUCUCGGGUGCCAA: 0.788
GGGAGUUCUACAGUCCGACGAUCGUUCUUGUGCAUCAGGAUAUAUCAAGCUGCCUUCAUGGCUAUAGAAUGUAAUGUAAGAAAAAUGUUCAUAAAUAUGGACAAAAAUGGUCCAGAUUACUUAGUUUAAAUAGUGGAAUUCUCGGGUGCCAA: 0.549
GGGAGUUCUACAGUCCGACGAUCUGAGCCCCAAGCCCCUUGGCCCACCACCCUGUUGUCUGAAGGGCUCUGUCUCACUCCACCUCCUUAUCUGCCAGCAUUGCUGUUUCCUGCAAAGGAUUAUGGGAAACUCCUGGAAUUCUCGGGUGCCAA: 0.327
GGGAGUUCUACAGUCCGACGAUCUGCUAUGUAAAUUAGGACUUGCCUGCCAGGUCUCAGCUGUCAGUGGAGAGUAGGUUUCAGGAAACCGGUAGACUGUCAGCAGCUGCCUCAGAAACUGUUCACAAAAGUCAUGGAAUUCUCGGGUGCCAA: 0.658
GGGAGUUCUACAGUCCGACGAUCCACCACCAGACACGUGCCCACAUCUGUCCCACUCUGGUCCUCGGGGGCCACUCCACCCUUAGGGAGCACAUGAAGAAGCUCCCUAAGAAGUUCUGCUCCUUAGCCAUCCUUGGAAUUCUCGGGUGCCAA: 0.452
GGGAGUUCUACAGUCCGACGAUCUUGAGACCUCCGGCCUUAGGAAGUUGCUUCCAUUAGGAAAUGCCUUUCUGAUCCCAGGAGCUCAGCUCGACUGUUAACAUCUGAAGCUUAUUCUCUUCCUUCCCGCUGGGUGGAAUUCUCGGGUGCCAA: 0.254
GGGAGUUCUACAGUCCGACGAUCCCUUGCACCUCCAAUAGGUUUUAUUAUUUUUUUUAAAUUAAUGAACAUAUGUAAUAUUAAUAGUUAUUAUUUACUGGUGCAGAUGGUUGACAUUUUUCCCUAUUUUCCUCUGGAAUUCUCGGGUGCCAA: 0.425
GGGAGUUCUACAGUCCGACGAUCAAUCUGUAUGCAUAAAGAAUGCACCACUCAACUUUUUUAUUCAUAAGCUAAUAUUUUUUUAAAGUUACAUUAAGAUUUUUUCUCUUUUGCAGCUACAUUUGAAAGUGAUAUGGAAUUCUCGGGUGCCAA: 0.88
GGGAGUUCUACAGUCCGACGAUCUAAAAGGAAAAAUAAGAAAAAAAAUGUAAGAAAUCACAUGGCUAUUUAGUUUCAUGCACAGUUGCAAUAUUUUCUUCAAAAAUAAAACUCUGUACAAACUUUGGGCCCGAUGGAAUUCUCGGGUGCCAA: 0.504

Sample 2 — technique: protein binding microarray; form: double-stranded DNA, one strand shown; medium: in vitro; tested at: not given; baseline: not given; reading: higher = stronger binding; quantity: E-score
Target: Histone acetyltransferase KAT6A, winged helix 1, GST fusion (KAT6A, Homo sapiens, UniProt Q92794, residues 1-85)
Notes: 8-mer, flanks averaged, mean of 2 arrays, mostly near background
Residues (chain): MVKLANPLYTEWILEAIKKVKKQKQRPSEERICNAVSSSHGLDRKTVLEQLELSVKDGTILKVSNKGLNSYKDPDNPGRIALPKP
AACGCACC: 0.143
ACACGAAT: -0.19
TAAAACCA: -0.0977
AGTGACAT: -0.137
GGCAACAC: -0.0402
CATTACGG: 0.248
CACCAATG: -0.0893
AGGGCCTG: -0.265
AGATACTG: -0.134
CCATCACG: 0.0571
GTTTACTA: -0.0151
GAAGAATA: -0.251
GACCGTGA: 0.0743
CACTCTAA: -0.132
GCTCCTGA: 0.136
ATCCGAAC: -0.0652
GGCCACAC: 0.00159
ACCACCGA: 0.03
CACCTTCA: -0.0131
CACCCAAA: -0.255
CCTTGAGA: -0.252

Sample 3 — technique: protein-binding microarray; form: double-stranded DNA, one strand shown; medium: in vitro; tested at: 2540 nM top; notes: 60-bp whole probe; with: salmon DNA 0.4 mg/ml; baseline: random background probes; reading: higher = stronger binding; quantity: fitted relative affinity; shared flanks, not repeated: GCCTAGCAC … GTCTTGATTCGCTTGACGCTGCTG
Target: Interferon regulatory factor 3, full length, phosphomimetic (IRF3, Homo sapiens, UniProt Q14653, residues 1-427, S386D/S396D/S398D/S402D/T404D/S405D)
Chain of UniProt Q14653 (whole entry, unmodified, looked up): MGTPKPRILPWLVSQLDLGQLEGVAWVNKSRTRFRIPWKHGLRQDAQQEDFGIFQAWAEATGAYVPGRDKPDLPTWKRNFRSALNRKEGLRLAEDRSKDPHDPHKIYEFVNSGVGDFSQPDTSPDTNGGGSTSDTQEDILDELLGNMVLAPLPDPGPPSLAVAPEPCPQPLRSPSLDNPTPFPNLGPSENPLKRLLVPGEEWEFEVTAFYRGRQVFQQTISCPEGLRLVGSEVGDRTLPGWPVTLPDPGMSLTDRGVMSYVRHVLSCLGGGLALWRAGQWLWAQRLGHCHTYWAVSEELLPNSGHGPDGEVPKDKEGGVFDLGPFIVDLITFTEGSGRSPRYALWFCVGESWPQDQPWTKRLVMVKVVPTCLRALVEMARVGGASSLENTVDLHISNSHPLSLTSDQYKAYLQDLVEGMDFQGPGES
TTTTACATTTTAAGAAATGTGTGCTAG: 2.5 z-score
TGAGAACTGAGTATCGATTAGTGCTAG: -0.0312 z-score
GACAGTATCGACTATCGGGACGTGCTA: 0.442 z-score
TTAGGTTTCGGGTCTGGGTTAGTGCTA: 5.09 z-score
GACGATTTCGGGTGTCGAGACGTGCTA: 1.32 z-score
GACGATATCGGGACTTGAGACGTGCTA: 0.12 z-score
CTAGGTTTCGGTCTCGGTTAGTGCTAG: 8.28 z-score
CCACCACCAACACCAGTCATGTGCTAG: -0.0419 z-score
TTAGGCATCCTTCTCCTTTAGTGCTAG: 1.19 z-score
GACGGTTTCGGTTCCGTGACGTGCTAG: 9.47 z-score
GACGGTCACGGTATCGGGACGTGCTAG: 0.507 z-score
TTCGATATCGGGTATCGATTAGTGCTA: 0.786 z-score
GACGGTACCGGGACTGGGGACGTGCTA: -0.144 z-score
AGTCCTGTCCAAGATGAGGAGTGCTAG: 0.167 z-score
GACGGTTTCGGGTATCGAGACGTGCTA: 4.87 z-score
TTAGGTTTCCTATTCCTTTAGTGCTAG: 7.28 z-score

Sample 4 — technique: universal PBM; form: double-stranded DNA, one strand shown; medium: in vitro; tested at: 600 nM; reading: higher = stronger binding; quantity: E-score
Target: Sal-like protein 4, full length isoform A (SALL4, Homo sapiens, UniProt Q9UJQ4, residues 1-1053)
Chain of UniProt Q9UJQ4 (whole entry, looked up): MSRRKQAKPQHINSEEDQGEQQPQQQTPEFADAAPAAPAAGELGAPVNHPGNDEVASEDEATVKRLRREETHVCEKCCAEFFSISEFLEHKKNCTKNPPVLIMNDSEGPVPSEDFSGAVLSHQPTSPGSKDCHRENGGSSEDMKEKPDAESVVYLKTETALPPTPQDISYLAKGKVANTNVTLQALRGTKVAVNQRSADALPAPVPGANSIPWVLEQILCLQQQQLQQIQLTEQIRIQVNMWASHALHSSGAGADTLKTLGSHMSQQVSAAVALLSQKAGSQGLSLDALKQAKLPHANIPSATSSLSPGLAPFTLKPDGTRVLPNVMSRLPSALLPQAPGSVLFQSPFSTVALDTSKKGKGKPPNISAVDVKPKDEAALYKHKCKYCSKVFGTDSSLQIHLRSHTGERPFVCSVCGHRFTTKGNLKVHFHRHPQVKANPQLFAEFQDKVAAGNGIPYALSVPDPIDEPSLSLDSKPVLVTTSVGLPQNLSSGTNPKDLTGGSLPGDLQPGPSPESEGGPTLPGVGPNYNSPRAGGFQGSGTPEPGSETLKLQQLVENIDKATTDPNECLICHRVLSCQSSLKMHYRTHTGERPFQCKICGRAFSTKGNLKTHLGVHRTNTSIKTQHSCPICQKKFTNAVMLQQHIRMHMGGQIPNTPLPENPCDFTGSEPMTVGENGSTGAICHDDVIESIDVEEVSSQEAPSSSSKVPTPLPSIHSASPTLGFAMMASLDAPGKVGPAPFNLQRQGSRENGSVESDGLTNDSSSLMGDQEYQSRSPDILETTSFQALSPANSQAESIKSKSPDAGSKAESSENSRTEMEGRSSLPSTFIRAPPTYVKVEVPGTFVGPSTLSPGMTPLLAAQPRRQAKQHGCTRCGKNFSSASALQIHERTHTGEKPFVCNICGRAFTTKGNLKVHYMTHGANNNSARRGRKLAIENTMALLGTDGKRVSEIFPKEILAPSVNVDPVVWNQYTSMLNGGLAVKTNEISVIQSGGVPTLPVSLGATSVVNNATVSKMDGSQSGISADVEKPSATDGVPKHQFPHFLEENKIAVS
Notes: 8-mer, flanks averaged, mean of replicates
AACCCGAT: -0.0873
ATGCCCAG: -0.173
AGCACGAC: -0.284
GATTCAAC: -0.163
ACCGAACT: -0.178
CAACATGC: 0.0685
ATTGGTCC: 0.0966
GGTATGCA: -0.0605
CAAGACGA: 0.0021
CTTTGTTA: 0.264
ACCCTCAT: -0.094
CCGGCCCC: -0.446
CCCTGGCA: -0.308
AGCGATAG: -0.119
TGGTTAAA: 0.251
GACGGTCC: -0.361
ATCCAATC: 0.126
GCGGCCTA: -0.29
ACCCGAGT: -0.208
AGCATGTC: 0.00931
CTTGAACC: 0.062
GACTGTAA: 0.126
CGAATCTC: -0.128
ATCCACGG: -0.185

Sample 5 — target: CCND1, cyclin fold, Cln2 fusion (human); technique: yeast growth competition, sequencing; medium: yeast; notes: strong parent motif; baseline: not given; reading: higher = stronger binding; quantity: normalised enrichment score
Parent: PKN2 docking peptide (human); VSAVRKLDFSDTM
T12Q: 5.11
S10I: 3.59
S10M: 4.11
T12M: 5.23
D11K: 4.24
D11C: 5.05
R5L: 1.75
F9I: 0.385
D8R: 0.844
F9E: 0.411
F9Q: -0.241
T12L: 5.16
S10V: 3.57
L7K: 0.23
L7M: 0.78
S2H: 4.33
D8P: 0.615
T12E: 5.4
V4L: 0.82
R5G: 0.482
T12A: 5.82
D8S: 5.1
A3Y: 0.193
V4S: 3.55
A3P: 2.37
